Measured values from different studies.
Protocols differ between the studies behind these lines. Numbers after ± are the reported error.
cyp121: Mycocyclosin synthase (cyp121, Mycobacterium tuberculosis, UniProt P9WPP7)
lasR: Transcriptional activator protein LasR (lasR, Pseudomonas aeruginosa, UniProt P25084)

By UniProt entry, the sequences of proteins in these tests, tags left out.
UniProt P9WPP7, whole entry: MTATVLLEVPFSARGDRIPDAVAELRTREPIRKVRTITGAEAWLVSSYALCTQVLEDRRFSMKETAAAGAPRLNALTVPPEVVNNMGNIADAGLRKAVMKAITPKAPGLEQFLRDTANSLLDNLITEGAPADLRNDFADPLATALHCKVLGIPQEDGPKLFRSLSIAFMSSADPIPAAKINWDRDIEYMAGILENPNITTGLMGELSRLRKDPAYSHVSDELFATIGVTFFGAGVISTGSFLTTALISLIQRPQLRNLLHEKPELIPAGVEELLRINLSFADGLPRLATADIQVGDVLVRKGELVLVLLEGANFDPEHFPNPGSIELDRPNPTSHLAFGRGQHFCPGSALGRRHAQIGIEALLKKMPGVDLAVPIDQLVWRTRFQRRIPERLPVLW
UniProt P25084, whole entry: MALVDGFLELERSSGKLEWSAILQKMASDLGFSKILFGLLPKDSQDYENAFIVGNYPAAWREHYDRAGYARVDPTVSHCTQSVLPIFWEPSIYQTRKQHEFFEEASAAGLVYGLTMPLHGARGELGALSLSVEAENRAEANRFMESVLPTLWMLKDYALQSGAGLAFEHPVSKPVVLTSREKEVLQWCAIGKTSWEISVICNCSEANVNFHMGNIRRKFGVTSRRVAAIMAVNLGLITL
UniProt P34972, whole entry: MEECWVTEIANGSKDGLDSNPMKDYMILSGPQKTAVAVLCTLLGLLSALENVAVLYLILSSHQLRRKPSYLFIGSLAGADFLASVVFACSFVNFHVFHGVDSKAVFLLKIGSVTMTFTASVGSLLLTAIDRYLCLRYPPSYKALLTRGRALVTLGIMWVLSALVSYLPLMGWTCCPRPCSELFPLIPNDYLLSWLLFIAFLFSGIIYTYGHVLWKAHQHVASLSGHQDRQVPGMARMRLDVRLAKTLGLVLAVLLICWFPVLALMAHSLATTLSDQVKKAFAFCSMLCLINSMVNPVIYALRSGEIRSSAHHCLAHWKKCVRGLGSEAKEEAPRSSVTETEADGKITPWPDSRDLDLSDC
UniProt Q3TBT3, whole entry: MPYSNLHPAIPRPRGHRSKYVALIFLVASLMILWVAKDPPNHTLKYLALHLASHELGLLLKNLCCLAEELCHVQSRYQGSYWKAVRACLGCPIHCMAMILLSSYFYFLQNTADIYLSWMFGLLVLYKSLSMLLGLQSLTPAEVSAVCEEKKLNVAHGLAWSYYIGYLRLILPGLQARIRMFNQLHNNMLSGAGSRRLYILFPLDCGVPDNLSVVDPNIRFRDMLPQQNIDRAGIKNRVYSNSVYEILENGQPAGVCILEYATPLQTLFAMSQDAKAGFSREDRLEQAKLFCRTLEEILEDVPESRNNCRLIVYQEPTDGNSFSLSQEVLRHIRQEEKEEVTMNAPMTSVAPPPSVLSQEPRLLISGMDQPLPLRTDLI
UniProt P35372, whole entry: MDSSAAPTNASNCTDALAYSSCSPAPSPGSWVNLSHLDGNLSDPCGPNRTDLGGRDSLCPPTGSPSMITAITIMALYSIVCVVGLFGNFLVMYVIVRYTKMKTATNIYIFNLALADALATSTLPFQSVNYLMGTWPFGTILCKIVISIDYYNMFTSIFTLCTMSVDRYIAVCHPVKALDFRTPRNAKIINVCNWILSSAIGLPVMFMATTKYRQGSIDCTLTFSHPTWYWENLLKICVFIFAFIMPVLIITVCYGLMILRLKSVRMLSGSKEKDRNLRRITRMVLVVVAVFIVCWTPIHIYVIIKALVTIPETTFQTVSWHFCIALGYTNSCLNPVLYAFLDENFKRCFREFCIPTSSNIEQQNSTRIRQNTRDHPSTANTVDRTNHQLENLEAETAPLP
UniProt P33535, whole entry: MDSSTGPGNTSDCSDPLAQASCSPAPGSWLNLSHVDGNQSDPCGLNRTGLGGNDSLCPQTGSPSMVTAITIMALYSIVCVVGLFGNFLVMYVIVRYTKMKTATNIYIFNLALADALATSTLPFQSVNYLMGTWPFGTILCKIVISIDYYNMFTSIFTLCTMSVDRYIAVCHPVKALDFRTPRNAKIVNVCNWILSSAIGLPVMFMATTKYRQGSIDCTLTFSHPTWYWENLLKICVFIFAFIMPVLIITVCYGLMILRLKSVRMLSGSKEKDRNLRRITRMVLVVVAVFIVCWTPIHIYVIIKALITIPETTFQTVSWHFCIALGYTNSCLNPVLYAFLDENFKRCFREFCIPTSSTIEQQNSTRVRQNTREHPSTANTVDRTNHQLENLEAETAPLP
UniProt Q9EP66, whole entry: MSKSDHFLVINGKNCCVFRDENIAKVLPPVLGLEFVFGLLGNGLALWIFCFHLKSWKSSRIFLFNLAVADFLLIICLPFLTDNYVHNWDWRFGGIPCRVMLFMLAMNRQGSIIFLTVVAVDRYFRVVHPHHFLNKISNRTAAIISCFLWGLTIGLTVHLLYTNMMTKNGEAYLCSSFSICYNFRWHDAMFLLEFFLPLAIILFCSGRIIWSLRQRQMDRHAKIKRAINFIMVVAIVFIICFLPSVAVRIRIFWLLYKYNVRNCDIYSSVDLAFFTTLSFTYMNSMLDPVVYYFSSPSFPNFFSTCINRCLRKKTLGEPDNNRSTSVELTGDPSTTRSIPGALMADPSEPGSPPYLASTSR
UniProt P01106, whole entry: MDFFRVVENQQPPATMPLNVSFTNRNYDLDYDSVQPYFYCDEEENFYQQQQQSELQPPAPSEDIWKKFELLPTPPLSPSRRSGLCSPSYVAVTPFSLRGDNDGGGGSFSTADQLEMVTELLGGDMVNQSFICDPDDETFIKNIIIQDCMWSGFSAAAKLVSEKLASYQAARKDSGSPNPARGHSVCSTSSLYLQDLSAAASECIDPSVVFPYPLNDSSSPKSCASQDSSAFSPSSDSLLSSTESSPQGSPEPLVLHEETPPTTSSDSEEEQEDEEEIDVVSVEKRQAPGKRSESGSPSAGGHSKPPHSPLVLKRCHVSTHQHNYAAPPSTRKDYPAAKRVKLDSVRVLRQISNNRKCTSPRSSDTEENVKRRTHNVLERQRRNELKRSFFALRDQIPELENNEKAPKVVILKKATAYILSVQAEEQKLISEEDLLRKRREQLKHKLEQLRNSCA
UniProt P41145, whole entry: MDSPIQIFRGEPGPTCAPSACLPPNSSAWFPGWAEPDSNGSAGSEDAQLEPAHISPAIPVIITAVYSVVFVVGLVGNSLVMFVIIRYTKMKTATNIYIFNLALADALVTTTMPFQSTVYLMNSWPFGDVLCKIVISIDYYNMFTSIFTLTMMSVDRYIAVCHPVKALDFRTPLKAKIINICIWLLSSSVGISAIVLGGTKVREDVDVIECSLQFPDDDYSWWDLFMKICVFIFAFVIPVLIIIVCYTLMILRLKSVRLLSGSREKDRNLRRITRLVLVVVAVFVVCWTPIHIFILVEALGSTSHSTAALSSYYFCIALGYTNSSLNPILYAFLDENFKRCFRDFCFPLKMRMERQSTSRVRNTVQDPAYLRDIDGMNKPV
UniProt P28221, whole entry: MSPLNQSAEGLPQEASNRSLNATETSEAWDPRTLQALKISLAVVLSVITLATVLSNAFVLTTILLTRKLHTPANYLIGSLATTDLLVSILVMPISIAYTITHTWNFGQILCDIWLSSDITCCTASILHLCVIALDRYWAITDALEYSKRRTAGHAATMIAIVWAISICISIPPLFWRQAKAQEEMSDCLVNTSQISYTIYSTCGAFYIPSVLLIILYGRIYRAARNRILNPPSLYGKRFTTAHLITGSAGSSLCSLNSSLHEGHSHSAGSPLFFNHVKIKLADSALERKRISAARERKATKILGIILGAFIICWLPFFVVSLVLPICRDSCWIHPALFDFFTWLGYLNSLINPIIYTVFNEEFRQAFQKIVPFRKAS

| Structure (SMILES) | target or system | assay | test system | conditions | measurement | value |
| --- | --- | --- | --- | --- | --- | --- |
| CC(c1ccc2c(c1)[nH]c1cc(F)ccc12)n1ccnc1 (stereo not drawn) | cyp121 | binding | – | – | Kd | 7500 ± 800 nM |
| NCCNCCSc1ccccc1 | – | – | Swiss Albino mouse, female | oral, 400 mg/kg, single dose, non-compartmental | lag time (Tlag) | 0 min |
| CC1(Cc2ccccc2)COc2ccc(C(=O)Nc3ccccc3I)cc21 (racemic) | CNR2 (Homo sapiens, UniProt P34972) | – | CHO cell membranes | – | EC50 | > 10000 nM |
| COc1ccc2cc(-c3ccc(F)cc3)ccc2c1Cn1ccnc1 | cyp121 | binding | – | – | Kd | 1400 ± 230 nM |
| N#Cc1ccccc1C(=O)Oc1c(Br)cc(Br)cc1CNC(=O)c1ccccc1[N+](=O)[O-] | lasR | reporter gene, agonist | Escherichia coli JLD271 lasI-lacZ reporter | – | EC50 | 5.64 nM |
| CCn1nc(C)cc1C(=O)Nc1nc2cc(C(N)=O)cc(OC)c2n1C/C=C/Cn1c(NC(=O)c2cc(C)nn2CC)nc2cc(C(N)=O)cc(OCCOCCNC(=O)CCCCN=[N+]=[N-])c21 | Sting1 (Mus musculus, UniProt Q3TBT3) | IFN-β secretion, agonist, ELISA | mouse BMDCs | carrier-free cysteine-blocked click | EC50 | 52 ± 11 nM |
| COCOc1c(Br)cc(Br)cc1CNC(=O)c1ccccc1[N+](=O)[O-] | lasR | reporter gene, agonist | Escherichia coli JLD271 lasI-lacZ reporter | – | EC50 | 37.6 nM |
| COCOc1ccc(C(=O)OC2=C[C@@H](C(=O)OC)[C@]3(C)CC[C@H]4C(=O)O[C@H](c5ccoc5)C[C@]4(C)[C@H]3C2=O)cc1Br | OPRM1 (Homo sapiens, UniProt P35372) | agonist | – | – | EC50 | 1300 ± 200 nM |
| O=C(N[C@@H]1CC[C@@]2(O)[C@H]3Cc4ccc(O)c5c4[C@@]2(CCN3CC2CC2)[C@H]1O5)c1ccnc(Br)c1 | Oprm1 (Rattus norvegicus, UniProt P33535) | agonist | CHO cell membranes | – | EC50 | 0.42 ± 0.05 nM |
| C1c2c(-c3nnn[nH]3)n[nH]c2[C@@H]2C[C@H]12 | Hcar2 (Mus musculus, UniProt Q9EP66) | cAMP level, agonist, GloSensor | cells expressing wild-type mouse receptor | – | EC50 | 82 nM |
| C#CCCCN1C(=O)[C@@]2(CN2[S@@+]([O-])C(C)(C)C)c2ccccc21 (stereo partly drawn) | MYC (Homo sapiens, UniProt P01106) | protein degradation, degrader, HiBiT | HEK293-LgBiT | 24 h | EC50 | 9300 nM |
| COCOc1ccc(C(=O)OC2=C[C@@H](C(=O)OC)[C@]3(C)CC[C@H]4C(=O)O[C@H](c5ccoc5)C[C@]4(C)[C@H]3C2=O)cc1F | OPRK1 (Homo sapiens, UniProt P41145) | agonist | – | – | EC50 | > 10000 nM |
| COc1ccc(CN[C@@H]2CO[C@H](C(c3ccccc3)c3ccccc3)C[C@H]2O)cc1 | HTR1D (Homo sapiens, UniProt P28221) | radioligand binding | – | 10 µM, with: [3H]GR-125743 | inhibition | -6.2% |
| NC[C@@H](NC[C@@H]1CCCN1C[C@@H](CO)NC[C@@H](NCCc1ccc(-c2ccccc2)cc1)c1ccccc1)c1ccccc1 | Escherichia coli | bacterial growth | – | 16 µM, fold shift of IC50, with: amikacin | potentiation of amikacin | 0.9 fold |
| O=C(Oc1c(Br)cc(Br)cc1CNC(=O)c1ccccc1[N+](=O)[O-])c1ccc(Br)cc1 | lasR | reporter gene, agonist | Escherichia coli JLD271 lasI-lacZ reporter | – | EC50 | 1.62 nM |

A few entries again:
| Structure (SMILES) | target or system | assay | test system | conditions | measurement | value |
| --- | --- | --- | --- | --- | --- | --- |
| N#Cc1ccccc1C(=O)Oc1c(Br)cc(Br)cc1CNC(=O)c1ccccc1[N+](=O)[O-] | lasR | reporter gene, agonist | Escherichia coli JLD271 lasI-lacZ reporter | – | EC50 | 5.64 nM |
| CCn1nc(C)cc1C(=O)Nc1nc2cc(C(N)=O)cc(OC)c2n1C/C=C/Cn1c(NC(=O)c2cc(C)nn2CC)nc2cc(C(N)=O)cc(OCCOCCNC(=O)CCCCN=[N+]=[N-])c21 | Sting1 (Mus musculus, UniProt Q3TBT3) | IFN-β secretion, agonist, ELISA | mouse BMDCs | carrier-free cysteine-blocked click | EC50 | 52 ± 11 nM |
